Measured values of several laboratories.
Lines come from different studies, so protocols differ.
Target: Dual specificity tyrosine-phosphorylation-regulated kinase 2 (DYRK2, Homo sapiens, UniProt Q92630)

Cc1cccc(-c2ccc3nc(NC(=O)C4CCOCC4)nn3c2)c1
remaining activity (enzyme activity, Dundee kinase panel; 10 µM): 48%

O=C=[N][Ru-4]123([n]4c5ccc(O)cc5c5c6c(c7cc(F)c[n+]1c7c54)C(=O)NC6=O)[S+]1CC[S+]2CC[S+]3CC1 (centres unmarked)
remaining activity (enzyme activity; 100 nM, human enzyme, with: 10 µM ATP; baseline: untreated): 114%

COC(=O)[C@@]1(C)C=C(C(=O)Nc2cccc(C(=O)Nc3ccc(Nc4nccc(-c5cccnc5)n4)c(C)c3)c2)C(=O)CC1
remaining activity (enzyme activity, inhibitor, radiometric; 1 µM): 91%

CNC(=O)C1CCN(c2cc(C)c(F)cc2NC(=O)c2ccc(-c3cc(O)ccc3C)c(C)c2)CC1
remaining binding (binding, competition with immobilised ligand; 1 µM): 100%

CCN1CCN(Cc2ccc(C(=O)Nc3ccc(C)c(NCc4cnc5[nH]ccc5c4OC)c3)cc2C(F)(F)F)CC1
remaining binding (binding, competition with immobilised ligand; 1 µM): 82%

C=CC(=O)N1Cc2nc(-c3cc(-c4cc(Cl)cnc4Cl)c(F)cc3F)n(-c3ccncn3)c2C1
inhibition (cell-free assay, inhibitor; 1 µM): -2.7%

Cc1cccc(O[C@H]2CCC[C@@H](C(C)CNCc3ccncc3)C2)c1 (relative stereo)
inhibition (enzyme activity, inhibitor; 10 µM): -4%

COc1ccc(NC(=O)Nc2ccc3c(c2)C(=O)N(C(C)CO)CC(C)C(CN(C)Cc2ccc4c(c2)OCO4)O3)cc1 (centres unmarked)
remaining activity (kinase activity, KinaseProfiler; 0.03 µM, species human; baseline: control): 99%

Nc1nc(Nc2ccccc2)sc1C(=O)c1ccccc1
remaining activity (enzyme activity, inhibitor; 10 µM): 25%

NC(=O)[C@@H](O)C[C@H]1CCc2sc3ncnc(O[C@H]4CC[C@H](N5CCOCC5)CC4)c3c21
inhibition (enzyme activity, inhibitor; 10 µM): 5%

CC(C)=CC1OC(C)(C)C2C=C3C(=O)C(Cl)=CC(O)C3C3C(O)C4OC4C(=O)C132 (centres unmarked)
remaining binding (cell-free assay, competition with immobilised ligand; 10 µM): 68%

O=C(Cc1ccc(OCc2ccccc2)cc1)NC1(C(=O)O)CCN(C(=O)c2ccc(-c3cccc(Cl)c3)cc2)CC1
activity vs control (enzyme activity, inhibitor; 10 µM): 103%

C=CC(=O)Nc1cccc(-c2cnc3[nH]cc(C(=O)NC(C)(C)C)c3n2)c1
inhibition (enzyme activity, inhibitor; 0.1 µM): 8%

COc1cc(Nc2nc(C)cc(-c3cnn4nc(OC)ccc34)n2)cc(C(F)(F)F)c1
remaining activity (inhibitor; 1 µM; baseline: control): 79%

Cc1cccc(-c2ccc3nc(NC(=O)C4CCCO4)nn3c2)c1 (centres unmarked)
remaining activity (enzyme activity, Dundee kinase panel; 10 µM): 62%

COc1c(Cl)cccc1Nc1c(-c2ccncc2C#C[C@@]2(C)CCCN2C(=O)/C=C/CN(C)C)[nH]c2c1C(=O)NCC2
remaining binding (binding, competition with immobilised ligand; 3 µM): 75%

Nc1ncc(-c2cc(-c3cnn(CC(F)(F)F)c3)ncc2F)nc1C(=O)NC1CNCC(F)C1 (centres unmarked)
remaining activity (enzyme activity; 1 µM; baseline: DMSO control): 94.9%
